Measurements gathered from unrelated publications.
Compare with care: the assays were run in different laboratories.
CDK5 with p35: Cyclin-dependent kinase 5, with p35 (CDK5, Homo sapiens, UniProt Q00535)
CDK5: Cyclin-dependent kinase 5 (CDK5, Homo sapiens, UniProt Q00535)
CDK5 with p25: Cyclin-dependent kinase 5, with p25 (CDK5, Homo sapiens, UniProt Q00535)

C=CC(=O)N1Cc2nc(-c3cc(-c4cc(Cl)cnc4Cl)c(F)cc3F)n(-c3ccncn3)c2C1 — inhibition (Cyclin-dependent kinase 5, inactive (CDK5, Homo sapiens, UniProt Q00535); kinome panel; 1 µM): -1.6%
NC(=O)[C@@H](O)C[C@H]1CCc2sc3ncnc(O[C@H]4CC[C@H](N5CCOCC5)CC4)c3c21 — inhibition (CDK5 with p35; enzyme activity, inhibitor; 10 µM): 28%
CCn1cc(C(=O)O)c(=O)c2c(N)c(F)c(NC3CCCCC3)cc21 — inhibition (CDK5 with p35; kinase activity; 0.1 µM, together with: ATP at Km): 29.2%
C=CC(=O)Nc1cccc(-c2cnc3[nH]cc(C(=O)NC(C)(C)C)c3n2)c1 — inhibition (CDK5; enzyme activity, inhibitor; 0.1 µM): 15%
CN1CC[C@@H](COc2cnc(C#N)cc2-c2ccn3nc(NC(=O)C4CC4)cc3c2)C1 — inhibition (CDK5 with p35; enzyme activity, inhibitor; 1 µM): 7%
Cc1cccc(O[C@H]2CCC[C@@H](C(C)CNCc3ccncc3)C2)c1 (relative stereo) — inhibition (CDK5; enzyme activity, inhibitor; 10 µM): -8%
COc1ccc(C(=O)/C=C/c2ccccc2-c2c[nH]c3ccc(C#N)cc23)c(O)c1 — inhibition (CDK5 with p25; enzyme activity, inhibitor; 20 µM): 7%
NC(=O)C[C@H]1CCc2sc3ncnc(O[C@H]4CC[C@H](N5CCOCC5)CC4)c3c21 — inhibition (CDK5 with p25; enzyme activity, inhibitor; 10 µM): 15%
COc1ccc(O)cc1-c1c[nH]c2ncc(-c3cncc(C(=O)N(C)C)c3)cc12 — inhibition (CDK5 with p35; binding, competition with immobilised ligand; 0.2 µM): 4.48%
CN1CCN(Cc2ccc(-c3ccc(CO[C@H]4CCC[C@@H]4NC(=O)c4cc(-c5cnn(C)c5)cnc4N)cc3)cc2)CC1 — inhibition (CDK5 with p25; enzyme activity, inhibitor; 0.1 µM): -3%

For quick reference, copied from above:
NC(=O)C[C@H]1CCc2sc3ncnc(O[C@H]4CC[C@H](N5CCOCC5)CC4)c3c21 — inhibition (CDK5 with p25; enzyme activity, inhibitor; 10 µM): 15%
